Measured values collected from several papers.
Every numbered part comes from another study and shows a few of its results, in no order. “And” joins repeats or separate records; there may be more than shown.
Sequence of UniProt P08173 (whole entry, looked up): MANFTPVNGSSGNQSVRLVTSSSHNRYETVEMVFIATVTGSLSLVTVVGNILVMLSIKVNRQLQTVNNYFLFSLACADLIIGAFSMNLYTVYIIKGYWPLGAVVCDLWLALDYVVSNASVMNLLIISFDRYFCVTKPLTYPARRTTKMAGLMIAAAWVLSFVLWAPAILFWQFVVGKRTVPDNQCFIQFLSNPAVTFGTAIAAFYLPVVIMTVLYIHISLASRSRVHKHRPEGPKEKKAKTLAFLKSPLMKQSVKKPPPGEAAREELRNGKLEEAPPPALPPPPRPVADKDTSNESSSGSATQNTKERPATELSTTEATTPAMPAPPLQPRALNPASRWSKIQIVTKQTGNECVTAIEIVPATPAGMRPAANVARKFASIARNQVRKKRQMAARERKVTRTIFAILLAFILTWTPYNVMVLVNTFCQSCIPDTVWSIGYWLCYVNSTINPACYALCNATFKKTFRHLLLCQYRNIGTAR
Sequence of UniProt P42336 (whole entry, unmodified, looked up): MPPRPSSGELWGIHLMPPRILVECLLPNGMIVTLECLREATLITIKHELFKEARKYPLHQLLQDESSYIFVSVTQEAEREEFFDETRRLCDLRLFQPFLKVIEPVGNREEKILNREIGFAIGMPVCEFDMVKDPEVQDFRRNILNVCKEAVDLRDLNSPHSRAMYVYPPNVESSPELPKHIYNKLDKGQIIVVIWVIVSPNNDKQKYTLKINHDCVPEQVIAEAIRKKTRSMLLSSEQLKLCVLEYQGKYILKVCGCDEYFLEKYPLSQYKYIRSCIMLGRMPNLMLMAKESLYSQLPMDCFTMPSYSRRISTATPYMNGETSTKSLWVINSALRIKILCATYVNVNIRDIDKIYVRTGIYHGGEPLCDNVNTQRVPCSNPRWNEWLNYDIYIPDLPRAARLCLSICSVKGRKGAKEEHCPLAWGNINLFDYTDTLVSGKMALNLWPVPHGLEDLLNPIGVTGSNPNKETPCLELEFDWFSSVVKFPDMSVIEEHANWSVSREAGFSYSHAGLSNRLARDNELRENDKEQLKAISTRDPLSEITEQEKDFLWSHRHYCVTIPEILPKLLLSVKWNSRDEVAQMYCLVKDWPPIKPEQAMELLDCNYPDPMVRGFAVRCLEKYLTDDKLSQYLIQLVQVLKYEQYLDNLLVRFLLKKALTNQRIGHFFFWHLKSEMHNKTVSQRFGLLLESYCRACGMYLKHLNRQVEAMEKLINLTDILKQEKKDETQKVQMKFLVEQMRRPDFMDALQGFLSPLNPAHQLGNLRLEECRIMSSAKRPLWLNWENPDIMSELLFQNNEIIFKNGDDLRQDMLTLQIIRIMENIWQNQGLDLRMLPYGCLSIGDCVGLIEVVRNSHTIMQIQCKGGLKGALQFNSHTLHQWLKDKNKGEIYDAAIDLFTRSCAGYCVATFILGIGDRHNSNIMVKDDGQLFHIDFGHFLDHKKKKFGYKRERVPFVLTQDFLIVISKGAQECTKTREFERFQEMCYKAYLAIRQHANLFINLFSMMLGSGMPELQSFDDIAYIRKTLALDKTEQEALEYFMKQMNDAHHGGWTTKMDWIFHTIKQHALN
Sequence of UniProt P21728 (whole entry, looked up): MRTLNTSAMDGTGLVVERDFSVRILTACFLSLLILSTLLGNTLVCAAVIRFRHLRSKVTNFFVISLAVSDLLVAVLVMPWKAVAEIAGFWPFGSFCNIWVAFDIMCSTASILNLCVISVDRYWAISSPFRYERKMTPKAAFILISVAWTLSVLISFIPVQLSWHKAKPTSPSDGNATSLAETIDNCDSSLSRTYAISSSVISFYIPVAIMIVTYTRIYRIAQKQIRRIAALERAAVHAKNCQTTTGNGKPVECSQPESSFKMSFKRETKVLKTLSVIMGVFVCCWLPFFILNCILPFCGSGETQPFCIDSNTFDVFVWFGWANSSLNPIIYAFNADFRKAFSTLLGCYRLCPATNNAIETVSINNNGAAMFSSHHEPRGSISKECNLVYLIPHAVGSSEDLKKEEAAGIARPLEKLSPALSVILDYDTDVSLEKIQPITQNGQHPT
Sequence of UniProt P78362 (whole entry, looked up): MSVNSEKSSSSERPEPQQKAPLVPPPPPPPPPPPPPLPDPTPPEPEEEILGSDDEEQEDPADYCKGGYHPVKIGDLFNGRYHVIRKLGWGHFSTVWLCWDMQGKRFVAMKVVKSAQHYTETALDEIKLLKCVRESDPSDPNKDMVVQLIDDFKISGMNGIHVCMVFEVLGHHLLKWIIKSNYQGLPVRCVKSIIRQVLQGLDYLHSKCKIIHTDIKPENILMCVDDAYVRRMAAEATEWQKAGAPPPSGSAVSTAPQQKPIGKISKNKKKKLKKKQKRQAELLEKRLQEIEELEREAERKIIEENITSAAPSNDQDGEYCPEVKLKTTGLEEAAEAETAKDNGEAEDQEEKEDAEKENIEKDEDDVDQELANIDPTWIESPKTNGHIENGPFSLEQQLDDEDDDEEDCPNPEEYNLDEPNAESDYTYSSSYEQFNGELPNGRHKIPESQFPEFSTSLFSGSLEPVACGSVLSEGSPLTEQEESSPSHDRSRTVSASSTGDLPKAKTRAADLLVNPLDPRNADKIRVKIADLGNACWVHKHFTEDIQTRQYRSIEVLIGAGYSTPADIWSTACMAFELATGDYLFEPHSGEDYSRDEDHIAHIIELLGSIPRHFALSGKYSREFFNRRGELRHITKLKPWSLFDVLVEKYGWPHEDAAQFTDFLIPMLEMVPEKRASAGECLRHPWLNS
Sequence of UniProt P08588 (whole entry, looked up): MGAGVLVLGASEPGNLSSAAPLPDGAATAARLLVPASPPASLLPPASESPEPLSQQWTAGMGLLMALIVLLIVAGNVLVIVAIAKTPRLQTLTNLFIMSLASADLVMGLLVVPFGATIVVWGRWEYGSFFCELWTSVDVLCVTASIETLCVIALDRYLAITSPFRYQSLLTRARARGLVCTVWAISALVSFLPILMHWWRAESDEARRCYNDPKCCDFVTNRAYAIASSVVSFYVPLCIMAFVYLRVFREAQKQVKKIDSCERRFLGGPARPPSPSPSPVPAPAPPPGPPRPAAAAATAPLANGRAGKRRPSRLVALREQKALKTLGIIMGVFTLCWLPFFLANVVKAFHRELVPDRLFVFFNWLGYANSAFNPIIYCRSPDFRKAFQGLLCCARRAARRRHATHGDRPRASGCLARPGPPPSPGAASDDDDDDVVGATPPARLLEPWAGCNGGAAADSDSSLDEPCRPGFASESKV
Sequence of UniProt Q86Y07 (whole entry, looked up): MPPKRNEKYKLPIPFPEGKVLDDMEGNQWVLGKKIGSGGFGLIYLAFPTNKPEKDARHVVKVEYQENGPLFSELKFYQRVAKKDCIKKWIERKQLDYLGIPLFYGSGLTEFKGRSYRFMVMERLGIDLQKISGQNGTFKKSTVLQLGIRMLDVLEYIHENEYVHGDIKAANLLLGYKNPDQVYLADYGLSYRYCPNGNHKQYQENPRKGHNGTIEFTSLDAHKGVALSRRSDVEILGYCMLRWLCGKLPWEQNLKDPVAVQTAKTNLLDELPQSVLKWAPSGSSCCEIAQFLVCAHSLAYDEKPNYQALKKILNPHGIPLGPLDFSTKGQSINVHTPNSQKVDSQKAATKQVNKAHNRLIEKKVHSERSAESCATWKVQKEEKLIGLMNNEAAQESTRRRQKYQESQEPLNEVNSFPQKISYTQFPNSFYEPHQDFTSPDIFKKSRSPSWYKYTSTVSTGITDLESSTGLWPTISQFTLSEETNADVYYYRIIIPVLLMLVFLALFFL
Sequence of UniProt P13945 (whole entry, looked up): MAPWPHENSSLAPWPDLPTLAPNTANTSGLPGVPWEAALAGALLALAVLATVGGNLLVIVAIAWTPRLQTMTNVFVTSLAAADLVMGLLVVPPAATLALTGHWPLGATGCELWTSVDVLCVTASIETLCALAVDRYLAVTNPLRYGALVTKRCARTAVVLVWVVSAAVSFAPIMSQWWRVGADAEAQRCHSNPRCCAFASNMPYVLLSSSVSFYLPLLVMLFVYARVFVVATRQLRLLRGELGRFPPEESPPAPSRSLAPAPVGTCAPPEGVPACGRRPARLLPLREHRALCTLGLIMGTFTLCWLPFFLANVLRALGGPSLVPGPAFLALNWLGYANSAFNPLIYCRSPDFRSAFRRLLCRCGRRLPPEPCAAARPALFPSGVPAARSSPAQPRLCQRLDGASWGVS
Sequence of UniProt Q16832 (whole entry, looked up): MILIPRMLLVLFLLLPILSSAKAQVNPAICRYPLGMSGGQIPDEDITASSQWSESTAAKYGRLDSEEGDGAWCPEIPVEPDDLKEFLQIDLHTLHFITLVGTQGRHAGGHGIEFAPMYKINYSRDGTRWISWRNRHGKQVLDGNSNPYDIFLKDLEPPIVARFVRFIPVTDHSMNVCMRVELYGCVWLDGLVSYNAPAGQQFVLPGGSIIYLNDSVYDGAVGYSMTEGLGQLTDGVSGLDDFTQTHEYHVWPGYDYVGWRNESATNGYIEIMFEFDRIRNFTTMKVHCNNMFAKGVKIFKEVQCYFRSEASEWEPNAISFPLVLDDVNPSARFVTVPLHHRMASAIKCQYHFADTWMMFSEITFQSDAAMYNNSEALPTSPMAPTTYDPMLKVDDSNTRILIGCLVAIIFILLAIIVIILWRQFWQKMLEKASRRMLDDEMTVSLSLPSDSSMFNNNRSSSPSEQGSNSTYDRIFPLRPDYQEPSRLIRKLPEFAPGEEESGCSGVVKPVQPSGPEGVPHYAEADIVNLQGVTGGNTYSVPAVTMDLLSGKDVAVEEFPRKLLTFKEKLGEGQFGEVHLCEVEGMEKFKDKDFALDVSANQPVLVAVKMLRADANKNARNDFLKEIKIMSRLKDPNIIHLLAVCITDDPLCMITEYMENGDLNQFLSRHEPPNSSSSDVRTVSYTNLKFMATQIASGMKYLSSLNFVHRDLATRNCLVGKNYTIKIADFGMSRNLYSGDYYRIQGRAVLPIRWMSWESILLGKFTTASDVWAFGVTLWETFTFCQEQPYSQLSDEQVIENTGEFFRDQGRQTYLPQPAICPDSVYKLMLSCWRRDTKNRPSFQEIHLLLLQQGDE

Set 1 — observed: binding; concentration: 1 µM; measurement: remaining binding
SMILES: Cc1ccc(NC(=O)c2ccnc(C(F)(F)F)c2)cc1-c1cc(OCCO)nc(N2CCOCC2)c1
FGFR1 (Homo sapiens, UniProt P11362); competition with immobilised ligand: 100%
VRK2 (Homo sapiens, UniProt Q86Y07); competition with immobilised ligand: 100%
PIK3CA (Homo sapiens, UniProt P42336, Q546K): 80%
DDR2 (Homo sapiens, UniProt Q16832); competition with immobilised ligand: 16%
SRPK2 (Homo sapiens, UniProt P78362): 100%
PKN1 (Homo sapiens, UniProt Q16512): 100%
WNK1 (Homo sapiens, UniProt Q9H4A3): 84%

Set 2 — observed: binding; mode: competitor; method: NanoBRET; cells: HEK293; measurement: normalized BRET
SMILES: CC(=O)N1CCN(c2nc(OC[C@@H]3CCCN3C)nc3c2CCN(c2cccc4cccc(Cl)c24)C3)C[C@@H]1CC#N
KRAS Q61L: GTPase KRas (KRAS, Homo sapiens, UniProt P01116, Q61L)
KRAS Q61R: GTPase KRas (KRAS, Homo sapiens, UniProt P01116, Q61R)
KRAS Q61L; 137 nM: 88.7% and 83.3% and 80.1%
KRAS Q61R; 11.1 µM: 109% and 84.2% and 97.8%
KRAS Q61L; 1.69 nM: 95.3% and 97.6% and 104%
KRAS Q61L; 3.7 µM: 33.5% and 37.7% and 32.7%
KRAS Q61R; 1.69 nM: 107% and 114% and 99.7%

Set 3 — cell line: A-375; concentration: 100 µM; time: 36 h; measurement: viability
CC(=O)Oc1ccc(C(c2ccc(OC(C)=O)cc2)c2ccccn2)cc1: 1.14%
CC(=O)OCC(=O)[C@@]12N=C(C)O[C@@H]1C[C@H]1[C@@H]3CCC4=CC(=O)C=C[C@]4(C)[C@H]3[C@@H](O)C[C@@]12C: 101%
CN(N=O)C(=O)N[C@@H](C=O)[C@@H](O)[C@H](O)[C@H](O)CO: 95.6%
COc1cccc2c1C(=O)c1c(O)c3c(c(O)c1C2=O)C[C@@](O)(C(=O)CO)C[C@@H]3O[C@H]1C[C@H](N)[C@@H](O)[C@H](C)O1: 23.3%
Cc1nc(Nc2ncc(C(=O)Nc3c(C)cccc3Cl)s2)cc(N2CCN(CCO)CC2)n1: 6.5% and 2.82%
C[C@@H]1O[C@@H](O[C@H]2[C@H](Oc3cc(O)c4c(c3)O[C@H](c3ccc(O)cc3)CC4=O)O[C@H](CO)[C@@H](O)[C@@H]2O)[C@H](O)[C@H](O)[C@H]1O: 90.1%
O=C(Nc1c(Cl)cncc1Cl)c1ccc(OC(F)F)c(OCC2CC2)c1: 55.9%

Set 4 — observed: ligand displacement; concentration: 10 µM; measurement: inhibition
SMILES: O=C(NCc1ncc(C(F)(F)F)cc1Cl)c1ccc2c(c1)C1(CCS(=O)(=O)CC1)[C@H](C1CC1)N2S(=O)(=O)c1ccc(F)cc1
HRH2 (Homo sapiens, UniProt P25021): 14.6%
DRD3 (Homo sapiens, UniProt P35462): 9.45%
CHRM4 (Homo sapiens, UniProt P08173): -13%
ADRB3 (Homo sapiens, UniProt P13945): -2.87%
ADRA2B (Homo sapiens, UniProt P18089): 13.5%
DRD1 (Homo sapiens, UniProt P21728): -38.2%
HRH3 (Homo sapiens, UniProt Q9Y5N1): -8.26%
DRD2 (Homo sapiens, UniProt P14416): -35.7%
ADRA1A (Homo sapiens, UniProt P35348): -0.32%
ADRB1 (Homo sapiens, UniProt P08588): -0.08%

Repeated from above (set 1):
FGFR1 (Homo sapiens, UniProt P11362); competition with immobilised ligand: 100%
VRK2 (Homo sapiens, UniProt Q86Y07); competition with immobilised ligand: 100%
